Published values of several laboratories.
± marks the error that the study gave.

Structure (SMILES)	refers to	species	matrix	route	dose	time	tissue uptake [%ID/g]
CCCC[C@H](NC(=O)CNC(=O)CNC(=O)CN1CCN(CC(=O)O)CCN(CC(=O)O)CC1)C(=O)N[C@H]1CC(=O)NCCCC[C@@H](C(N)=O)NC(=O)[C@H](Cc2c[nH]c3ccccc23)NC(=O)[C@H](CCCNC(=N)N)NC(=O)[C@@H](Cc2ccccc2)NC(=O)[C@H](Cc2c[nH]cn2)NC1=O [gallium-67 labelled]		female C57 mice, B16/F1 melanoma	kidneys	intravenous	0.037 MBq	24 h	2.74 ± 0.64
CCCC[C@@H]1NC(=O)[C@@H](NC(=O)[C@H](CCC(=O)O)NC(=O)CNC(=O)CN2CCN(CC(=O)O)CCN(CC(=O)O)CCN(CC(=O)O)CC2)CCCCNC(=O)C[C@@H](C(N)=O)NC(=O)[C@H](C(C)C)NC(=O)[C@@H]2CCCN2C(=O)[C@H](CCCNC(=N)N)NC(=O)CNC(=O)[C@H](Cc2c[nH]c3ccccc23)NC(=O)[C@H](CCCNC(=N)N)NC(=O)[C@@H](Cc2ccccc2)NC(=O)[C@H](Cc2c[nH]cn2)NC(=O)[C@H](CCC(=O)O)NC1=O [gallium-67 labelled]		C57 mice with B16/F1 melanoma	pancreas	intravenous	0.037 MBq	2 h	0.1 ± 0.08
CN1C(=O)[C@@H](Cc2ccc(O)c(I)c2)NC(=O)CNC(=O)[C@H](Cc2ccc3ccccc3c2)NC(=O)[C@H](CCCNC(=N)N)NC(=O)[C@H]1CCCNC(=O)c1ccc(CNC(=O)CN2CCN(CC(=O)O)CCN(CC(=O)O)CCN(CC(=O)O)CC2)cc1 [lutetium-177 labelled]	177Lu radioactivity	female CB-17 SCID mice, Daudi xenograft	small intestine	intravenous	0.16 nmol per mouse	96 h	0.09 ± 0.02
OCc1cn(Cc2ccc(-c3noc(-c4ccc(OCC[18F])c(C(F)(F)F)c4)n3)cc2)nn1		female Lewis rat	muscle	intravenous		60 min	0.51 ± 0.02
CCCC[C@H](NC(=O)CNC(=O)CNC(=O)CN1CCN(CC(=O)O)CCN(CC(=O)O)CCN(CC(=O)O)CC1)C(=O)N[C@H]1CC(=O)NCCCC[C@@H](C(N)=O)NC(=O)[C@H](Cc2c[nH]c3ccccc23)NC(=O)[C@H](CCCNC(=N)N)NC(=O)[C@@H](Cc2ccccc2)NC(=O)[C@H](Cc2c[nH]cn2)NC1=O [lead-203 labelled]		C57 mouse	stomach	intravenous	0.056 MBq	24 h	1.67 ± 0.93
CN(C)c1ccc(-c2nc3ccc(OCCCCCN4CCN5CCN(CC4)CC(=O)[O][Al]([18F])[O]C(=O)C5)cc3s2)cc1		ICR mouse	heart	intravenous		30 min	0.83 ± 0.14
CC(C)[C@H](NC(=O)[C@@H]1CCCN1C(=O)[C@H](CCCNC(=N)N)NC(=O)[C@H](CS)NC(=O)[C@H](Cc1c[nH]c2ccccc12)NC(=O)[C@H](CCCNC(=N)N)NC(=O)[C@@H](Cc1ccccc1)NC(=O)[C@H](Cc1c[nH]cn1)NC(=O)[C@H](CCC(=O)O)NC(=O)[C@H](CS)NC(=O)[C@H](CS)NC(=O)CNC(=O)[C@@H]1CC(=O)N[C@@H](CCCNC(=N)N)C(=O)NCC(=O)N[C@@H](CC(=O)O)C(=O)N[C@H](Cc2ccc(O)cc2)C(=O)N1)C(N)=O [technetium-99m labelled]		C57 mouse, female, B16/F1 melanoma	heart	intravenous	0.037 MBq	0.5 h	2.56 ± 0.5
O=C([O-])CN1CCN(CC(=O)[O-])CCN(CC(=O)NCCc2ccc3c(c2)C2C=CCC2C(c2cc4c(cc2Br)OCO4)N3)CCN(CC(=O)[O-])CC1.[111In+3] (stereo not shown)		mouse, Hec50 endometrial tumour	liver			2 h post injection	3.87 ± 0.41
CC(C)[C@H](NC(=O)[C@@H]1CCCN1C(=O)[C@H](CCCNC(=N)N)NC(=O)[C@H](CS)NC(=O)[C@H](Cc1c[nH]c2ccccc12)NC(=O)[C@H](CCCNC(=N)N)NC(=O)[C@@H](Cc1ccccc1)NC(=O)[C@H](Cc1c[nH]cn1)NC(=O)[C@H](CCC(=O)O)NC(=O)[C@H](CS)NC(=O)[C@H](CS)NC(=O)[C@@H]1CC(=O)N[C@@H](CCCNC(=N)N)C(=O)NCC(=O)N[C@@H](CC(=O)O)C(=O)N[C@H](Cc2ccc(O)cc2)C(=O)N1)C(N)=O [technetium-99m labelled]		C57 mouse, female, B16/F1 melanoma	spleen	intravenous	0.037 MBq	4 h	0.66 ± 0.31
CCCC[C@H](NC(=O)CNC(=O)CNC(=O)CN1CCN(CC(=O)O)CCN(CC(=O)O)CCN(CC(=O)O)CC1)C(=O)N[C@H]1CC(=O)NCCCC[C@@H](C(N)=O)NC(=O)[C@H](Cc2c[nH]c3ccccc23)NC(=O)[C@H](CCCNC(=N)N)NC(=O)[C@@H](Cc2ccccc2)NC(=O)[C@H](Cc2c[nH]cn2)NC1=O [copper-64 labelled]		female C57 mouse, B16/F1 melanoma	muscle	intravenous	0.037 MBq	0.5 h	0.8 ± 0.12

Some of these lines once more:
Structure (SMILES)	refers to	species	matrix	route	dose	time	tissue uptake [%ID/g]
CCCC[C@H](NC(=O)CNC(=O)CNC(=O)CN1CCN(CC(=O)O)CCN(CC(=O)O)CCN(CC(=O)O)CC1)C(=O)N[C@H]1CC(=O)NCCCC[C@@H](C(N)=O)NC(=O)[C@H](Cc2c[nH]c3ccccc23)NC(=O)[C@H](CCCNC(=N)N)NC(=O)[C@@H](Cc2ccccc2)NC(=O)[C@H](Cc2c[nH]cn2)NC1=O [copper-64 labelled]		female C57 mouse, B16/F1 melanoma	muscle	intravenous	0.037 MBq	0.5 h	0.8 ± 0.12
